Measurements gathered from unrelated publications.
Numbered parts are unrelated; each lists some results of a single study. “And” joins repeats or separate records; there may be more than shown.
Chain of UniProt P42336 (whole entry, unmodified, looked up): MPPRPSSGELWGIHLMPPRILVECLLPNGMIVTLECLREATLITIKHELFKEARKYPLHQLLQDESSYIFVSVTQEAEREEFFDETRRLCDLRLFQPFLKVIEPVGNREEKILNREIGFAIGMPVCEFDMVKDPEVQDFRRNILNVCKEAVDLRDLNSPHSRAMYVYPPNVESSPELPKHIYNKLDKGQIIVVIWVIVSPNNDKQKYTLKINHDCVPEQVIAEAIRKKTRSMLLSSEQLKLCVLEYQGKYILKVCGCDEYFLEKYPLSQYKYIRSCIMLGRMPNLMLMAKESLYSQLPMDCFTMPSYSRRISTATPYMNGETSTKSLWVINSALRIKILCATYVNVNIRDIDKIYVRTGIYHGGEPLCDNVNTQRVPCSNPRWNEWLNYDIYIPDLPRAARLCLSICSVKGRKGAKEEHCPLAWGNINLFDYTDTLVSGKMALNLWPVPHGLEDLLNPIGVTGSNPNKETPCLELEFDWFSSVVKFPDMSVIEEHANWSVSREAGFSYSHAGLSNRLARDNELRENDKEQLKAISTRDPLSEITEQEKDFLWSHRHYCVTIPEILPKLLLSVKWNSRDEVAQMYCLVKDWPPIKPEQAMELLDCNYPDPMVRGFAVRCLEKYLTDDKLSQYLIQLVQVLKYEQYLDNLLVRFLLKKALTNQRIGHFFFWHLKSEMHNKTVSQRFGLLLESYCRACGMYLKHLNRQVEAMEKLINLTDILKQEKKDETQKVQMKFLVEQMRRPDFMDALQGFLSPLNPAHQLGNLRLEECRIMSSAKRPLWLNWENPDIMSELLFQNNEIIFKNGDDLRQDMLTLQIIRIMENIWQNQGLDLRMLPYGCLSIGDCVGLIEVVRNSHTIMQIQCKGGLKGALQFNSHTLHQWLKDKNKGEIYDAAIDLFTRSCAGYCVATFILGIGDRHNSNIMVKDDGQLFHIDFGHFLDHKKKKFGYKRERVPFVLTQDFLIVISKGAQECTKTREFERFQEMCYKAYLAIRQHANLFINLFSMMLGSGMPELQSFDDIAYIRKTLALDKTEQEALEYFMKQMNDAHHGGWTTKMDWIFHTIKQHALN
Chain of UniProt Q86Y07 (whole entry, looked up): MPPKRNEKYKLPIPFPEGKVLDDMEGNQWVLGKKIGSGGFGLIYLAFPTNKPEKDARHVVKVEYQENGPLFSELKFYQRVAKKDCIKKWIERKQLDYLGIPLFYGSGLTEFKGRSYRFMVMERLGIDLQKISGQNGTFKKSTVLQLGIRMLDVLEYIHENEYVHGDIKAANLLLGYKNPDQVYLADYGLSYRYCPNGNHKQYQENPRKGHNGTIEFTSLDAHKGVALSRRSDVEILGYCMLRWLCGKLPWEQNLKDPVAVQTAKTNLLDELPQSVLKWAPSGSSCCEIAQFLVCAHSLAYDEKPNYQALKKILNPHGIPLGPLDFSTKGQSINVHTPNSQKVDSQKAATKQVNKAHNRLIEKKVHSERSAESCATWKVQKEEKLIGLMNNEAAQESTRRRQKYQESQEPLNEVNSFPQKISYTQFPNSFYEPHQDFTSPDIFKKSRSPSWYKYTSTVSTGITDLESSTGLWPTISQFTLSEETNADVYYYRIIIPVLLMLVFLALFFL
Chain of UniProt P49840 (whole entry, looked up): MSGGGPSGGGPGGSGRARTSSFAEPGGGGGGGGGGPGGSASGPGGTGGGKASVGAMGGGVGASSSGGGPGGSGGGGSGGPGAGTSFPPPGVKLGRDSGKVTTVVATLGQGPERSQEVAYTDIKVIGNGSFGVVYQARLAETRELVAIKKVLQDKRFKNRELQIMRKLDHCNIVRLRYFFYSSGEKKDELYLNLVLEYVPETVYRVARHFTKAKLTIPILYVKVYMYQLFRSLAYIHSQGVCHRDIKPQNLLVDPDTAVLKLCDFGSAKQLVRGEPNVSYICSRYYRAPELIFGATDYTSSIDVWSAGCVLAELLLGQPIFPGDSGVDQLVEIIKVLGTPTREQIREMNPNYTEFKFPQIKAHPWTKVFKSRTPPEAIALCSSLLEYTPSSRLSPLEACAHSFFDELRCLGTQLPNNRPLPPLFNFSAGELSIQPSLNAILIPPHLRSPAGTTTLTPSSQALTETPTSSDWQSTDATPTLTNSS

Block 1
Compound: CO[C@@H]1[C@H](N(C)C(=O)c2ccccc2)C[C@H]2O[C@]1(C)n1c3ccccc3c3c4c(c5c6ccccc6n2c5c31)C(=O)NC4
Effect on: enzyme activity
Action: inhibitor
Concentration: 1 µM
target | inhibition [%]
1-phosphatidylinositol 3-phosphate 5-kinase (PIKFYVE, Homo sapiens, UniProt Q9Y2I7) | 0
Serine/threonine-protein kinase VRK2 (VRK2, Homo sapiens, UniProt Q86Y07) | 32
SRSF protein kinase 3 (SRPK3, Homo sapiens, UniProt Q9UPE1) | 4
Phosphatidylinositol 4,5-bisphosphate 3-kinase catalytic subunit alpha isoform (PIK3CA, Homo sapiens, UniProt P42336, H1047Y) | 31
Cyclin-dependent kinase-like 5 (CDKL5, Homo sapiens, UniProt O76039) | 11
Calcium/calmodulin-dependent protein kinase type II subunit beta (CAMK2B, Homo sapiens, UniProt Q13554) | 81

Block 2
Compound: CN1CCN(C(=O)c2ccc(NC(=O)Nc3ccc(N(C)c4ccnc(Nc5ccc(CS(C)(=O)=O)cc5)n4)cc3)cc2)CC1
Concentration: 1 µM
target | remaining activity
Vascular endothelial growth factor receptor 3 (FLT4, Homo sapiens, UniProt P35916) | 2%
cAMP-dependent protein kinase catalytic subunit beta (PRKACB, Homo sapiens, UniProt P22694) | 100%
Angiopoietin-1 receptor (TEK, Homo sapiens, UniProt Q02763) | 41%
Platelet-derived growth factor receptor alpha (PDGFRA, Homo sapiens, UniProt P16234) | 2%
Serine/threonine-protein kinase STK11 (STK11, Homo sapiens, UniProt Q15831) | 76%

Block 3
Target: DNA polymerase theta, ATPase domain (POLQ, Homo sapiens, UniProt O75417)
Chain of UniProt O75417 (whole entry, unmodified, looked up): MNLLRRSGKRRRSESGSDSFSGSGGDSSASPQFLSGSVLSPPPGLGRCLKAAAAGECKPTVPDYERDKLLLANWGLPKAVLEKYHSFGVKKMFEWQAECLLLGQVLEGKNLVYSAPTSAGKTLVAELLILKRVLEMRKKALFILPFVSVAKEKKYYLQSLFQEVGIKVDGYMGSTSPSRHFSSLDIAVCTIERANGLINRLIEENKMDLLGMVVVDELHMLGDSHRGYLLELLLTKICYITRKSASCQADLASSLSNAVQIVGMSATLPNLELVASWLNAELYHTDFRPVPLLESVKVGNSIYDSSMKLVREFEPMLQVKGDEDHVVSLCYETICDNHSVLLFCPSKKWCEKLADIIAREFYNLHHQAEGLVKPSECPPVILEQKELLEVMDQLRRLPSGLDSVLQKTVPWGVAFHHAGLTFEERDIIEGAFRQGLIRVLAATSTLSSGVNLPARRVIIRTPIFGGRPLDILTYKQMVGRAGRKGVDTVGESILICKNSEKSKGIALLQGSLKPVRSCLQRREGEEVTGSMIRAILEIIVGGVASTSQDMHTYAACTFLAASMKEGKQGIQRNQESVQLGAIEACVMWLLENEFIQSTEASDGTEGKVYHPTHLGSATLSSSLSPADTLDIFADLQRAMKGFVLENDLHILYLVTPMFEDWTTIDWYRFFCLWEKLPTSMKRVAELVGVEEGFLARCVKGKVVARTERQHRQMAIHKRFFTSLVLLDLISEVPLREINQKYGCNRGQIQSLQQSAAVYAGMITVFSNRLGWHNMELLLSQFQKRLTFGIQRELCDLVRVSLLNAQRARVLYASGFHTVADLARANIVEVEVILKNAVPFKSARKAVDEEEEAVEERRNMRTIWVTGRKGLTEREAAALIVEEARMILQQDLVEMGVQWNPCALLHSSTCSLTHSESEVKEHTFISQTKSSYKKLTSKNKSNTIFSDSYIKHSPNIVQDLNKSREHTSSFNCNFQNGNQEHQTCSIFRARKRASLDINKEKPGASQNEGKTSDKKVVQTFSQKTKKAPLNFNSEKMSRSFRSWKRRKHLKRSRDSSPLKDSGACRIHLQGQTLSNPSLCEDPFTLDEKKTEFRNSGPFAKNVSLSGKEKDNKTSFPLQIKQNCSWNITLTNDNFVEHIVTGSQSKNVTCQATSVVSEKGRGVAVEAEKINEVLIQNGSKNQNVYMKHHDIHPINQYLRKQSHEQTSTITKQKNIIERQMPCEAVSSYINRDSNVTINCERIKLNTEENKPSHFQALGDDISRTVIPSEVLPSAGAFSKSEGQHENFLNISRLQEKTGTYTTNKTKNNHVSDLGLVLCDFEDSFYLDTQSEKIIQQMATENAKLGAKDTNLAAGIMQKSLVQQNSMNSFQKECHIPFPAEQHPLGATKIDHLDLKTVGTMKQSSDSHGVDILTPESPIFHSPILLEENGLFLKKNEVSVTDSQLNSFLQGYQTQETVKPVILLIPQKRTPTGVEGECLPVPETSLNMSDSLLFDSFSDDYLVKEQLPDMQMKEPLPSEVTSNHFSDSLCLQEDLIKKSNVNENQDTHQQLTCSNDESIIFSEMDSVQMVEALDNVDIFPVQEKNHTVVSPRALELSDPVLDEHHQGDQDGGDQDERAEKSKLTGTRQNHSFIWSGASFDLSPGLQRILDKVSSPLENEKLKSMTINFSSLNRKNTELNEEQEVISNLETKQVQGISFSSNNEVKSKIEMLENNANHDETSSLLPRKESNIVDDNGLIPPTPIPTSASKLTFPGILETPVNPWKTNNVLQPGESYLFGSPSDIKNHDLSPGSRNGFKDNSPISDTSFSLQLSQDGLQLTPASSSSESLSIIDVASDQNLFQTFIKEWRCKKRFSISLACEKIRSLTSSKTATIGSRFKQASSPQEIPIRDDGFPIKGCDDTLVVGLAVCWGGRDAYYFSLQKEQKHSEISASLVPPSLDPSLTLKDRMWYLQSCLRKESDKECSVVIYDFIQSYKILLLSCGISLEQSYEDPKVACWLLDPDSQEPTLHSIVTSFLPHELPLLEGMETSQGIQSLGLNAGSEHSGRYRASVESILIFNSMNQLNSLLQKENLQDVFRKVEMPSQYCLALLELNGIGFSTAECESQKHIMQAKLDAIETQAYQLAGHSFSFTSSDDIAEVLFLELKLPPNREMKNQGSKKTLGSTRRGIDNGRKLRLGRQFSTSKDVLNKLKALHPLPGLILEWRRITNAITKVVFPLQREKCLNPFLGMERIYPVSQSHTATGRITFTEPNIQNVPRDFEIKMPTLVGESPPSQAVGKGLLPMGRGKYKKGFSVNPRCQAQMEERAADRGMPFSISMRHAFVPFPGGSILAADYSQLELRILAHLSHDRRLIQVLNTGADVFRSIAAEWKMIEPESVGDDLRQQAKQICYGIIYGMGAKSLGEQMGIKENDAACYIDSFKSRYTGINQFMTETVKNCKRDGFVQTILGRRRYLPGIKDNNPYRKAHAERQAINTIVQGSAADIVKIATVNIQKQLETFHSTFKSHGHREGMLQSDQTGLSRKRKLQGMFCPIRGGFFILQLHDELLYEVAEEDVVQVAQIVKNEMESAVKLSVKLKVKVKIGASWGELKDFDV
Effect on: enzyme activity
Action: inhibitor
Concentration: 77 µM
Relative to: untreated
SMILES | remaining activity
C[C@H](CCC(=O)O)[C@H]1CC[C@H]2[C@@H]3C[C@H](O)[C@@H]4C[C@H](O)CC[C@]4(C)[C@H]3CC[C@]12C | 91.6%
C[C@@H](N)[C@H]1CC[C@H](C(=O)Nc2ccncc2)CC1 | 102% and 111%
CC(=O)OCC(=O)[C@@]1(O)CC[C@H]2[C@@H]3CCC4=CC(=O)C=C[C@]4(C)[C@@]3(F)[C@@H](O)C[C@@]21C | 96.2%
CC1(COc2ccc3c(c2)ncn3-c2ccc3cccc(N4CCC(N)CC4)c3n2)COC1 | 98.8%
CCCCCCCCCCCCCCCCn1cc[n+](Cc2ccccc2)c1C | 99.1%
O=C(Nc1ncc(SCCN2CCCC2)s1)[C@]1(c2ccc(S(=O)(=O)C3CC3)cc2)C[C@H]1C1CCCCC1 | 99.1%

Block 4
Target: Calcium/calmodulin-dependent protein kinase type II subunit alpha (CAMK2A, Homo sapiens, UniProt Q9UQM7)
Chain of UniProt Q9UQM7 (whole entry, looked up): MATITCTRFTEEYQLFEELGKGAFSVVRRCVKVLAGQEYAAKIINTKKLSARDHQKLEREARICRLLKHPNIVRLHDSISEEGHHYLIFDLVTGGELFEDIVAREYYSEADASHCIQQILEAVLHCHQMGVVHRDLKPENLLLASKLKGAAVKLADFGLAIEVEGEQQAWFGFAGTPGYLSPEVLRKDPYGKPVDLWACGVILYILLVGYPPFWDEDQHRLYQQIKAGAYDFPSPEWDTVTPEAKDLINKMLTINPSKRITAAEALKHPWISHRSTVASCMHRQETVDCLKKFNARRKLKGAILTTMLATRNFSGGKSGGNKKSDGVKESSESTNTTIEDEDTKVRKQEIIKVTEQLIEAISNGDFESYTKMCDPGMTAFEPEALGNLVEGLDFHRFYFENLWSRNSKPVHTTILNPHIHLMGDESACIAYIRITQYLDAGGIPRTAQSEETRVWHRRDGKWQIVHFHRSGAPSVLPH
Effect on: enzyme activity
Action: inhibitor
Concentration: 10 µM
Structure (SMILES) | inhibition [%]
CCC(=O)OC(CC(=O)[O-])C[N+](C)(C)C (centres unmarked) | 13
CC(=O)O[C@]1(C(C)=O)CC[C@H]2[C@@H]3CCC4=CC(=O)CCC4=C3[C@@H](c3ccc(N(C)C)cc3)C[C@@]21C | -14
CC(=O)OCC(=O)[C@@]12OC(C)(C)O[C@@H]1C[C@H]1[C@@H]3C[C@H](F)C4=CC(=O)C=C[C@]4(C)[C@@]3(F)[C@@H](O)C[C@@]12C | -7
Nc1nc(=S)c2[nH]cnc2[nH]1 | -3
COc1cc(/C=C/C(=O)NCCc2ccc(O)cc2)ccc1O | 18

Block 5
SMILES: COc1ccc2cc(OCC3(C(=O)O)CN(C(=O)c4ccc(F)cc4)C3)ccc2c1
Effect on: cell-free assay
Technique: competition with immobilised ligand
Concentration: 1 µM
target | remaining binding
Phosphatidylinositol 4,5-bisphosphate 3-kinase catalytic subunit alpha isoform (PIK3CA, Homo sapiens, UniProt P42336, E545A) | 100%
Glycogen synthase kinase-3 alpha (GSK3A, Homo sapiens, UniProt P49840) | 96%
Insulin-like growth factor 1 receptor (IGF1R, Homo sapiens, UniProt P08069) | 100%
Serine/threonine-protein kinase LATS1 (LATS1, Homo sapiens, UniProt O95835) | 87%
Cyclin-dependent kinase 7 (CDK7, Homo sapiens, UniProt P50613) | 100%
cAMP-dependent protein kinase catalytic subunit beta (PRKACB, Homo sapiens, UniProt P22694) | 100%
Megakaryocyte-associated tyrosine-protein kinase (MATK, Homo sapiens, UniProt P42679) | 100%
Tyrosine-protein kinase ABL1, non-phosphorylated (ABL1, Homo sapiens, UniProt P00519, T315I) | 100%
Serine/threonine-protein kinase PRP4 homolog (PRPF4B, Homo sapiens, UniProt Q13523) | 100%
Casein kinase II subunit alpha (CSNK2A1, Homo sapiens, UniProt P68400) | 100%
Mitogen-activated protein kinase 4 (MAPK4, Homo sapiens, UniProt P31152) | 100%
Cyclin-dependent kinase 4 (CDK4, Homo sapiens, UniProt P11802) | 90%
Phosphatidylinositol 4,5-bisphosphate 3-kinase catalytic subunit alpha isoform (PIK3CA, Homo sapiens, UniProt P42336, E545K) | 100%
Calcium/calmodulin-dependent protein kinase type 1B (PNCK, Homo sapiens, UniProt Q6P2M8) | 100%
Phosphatidylinositol 4,5-bisphosphate 3-kinase catalytic subunit beta isoform (PIK3CB, Homo sapiens, UniProt P42338) | 100%
Serine/threonine-protein kinase Sgk1 (SGK1, Homo sapiens, UniProt O00141) | 81%
Leucine-rich repeat serine/threonine-protein kinase 2 (LRRK2, Homo sapiens, UniProt Q5S007, G2019S) | 84%
Mitogen-activated protein kinase kinase kinase kinase 3 (MAP4K3, Homo sapiens, UniProt Q8IVH8) | 100%
Mitotic checkpoint serine/threonine-protein kinase BUB1 (BUB1, Homo sapiens, UniProt O43683) | 100%
Tyrosine-protein kinase JAK1, JH2 (JAK1, Homo sapiens, UniProt P23458) | 96%
Serine/threonine-protein kinase 24 (STK24, Homo sapiens, UniProt Q9Y6E0) | 85%
Receptor-interacting serine/threonine-protein kinase 2 (RIPK2, Homo sapiens, UniProt O43353) | 100%

Repeated from above (block 4):
Structure (SMILES) | inhibition [%]
COc1cc(/C=C/C(=O)NCCc2ccc(O)cc2)ccc1O | 18
CC(=O)OCC(=O)[C@@]12OC(C)(C)O[C@@H]1C[C@H]1[C@@H]3C[C@H](F)C4=CC(=O)C=C[C@]4(C)[C@@]3(F)[C@@H](O)C[C@@]12C | -7
Nc1nc(=S)c2[nH]cnc2[nH]1 | -3
CCC(=O)OC(CC(=O)[O-])C[N+](C)(C)C (centres unmarked) | 13
CC(=O)O[C@]1(C(C)=O)CC[C@H]2[C@@H]3CCC4=CC(=O)CCC4=C3[C@@H](c3ccc(N(C)C)cc3)C[C@@]21C | -14
